Published values from different studies.
Compare with care: the assays were run in different laboratories. Several values in a cell are separate wells, animals, samples, runs or records. ± gives the spread as reported.

CC(C)C[C@H](NC(=O)[C@H](CC(=O)O)NC(=O)CNC(=O)[C@@H](N)CCCNC(=N)N)C(=O)N[C@@H](C)C(=O)N[C@H](C(=O)N[C@@H](CC(C)C)C(=O)N[C@@H](CCCNC(=N)N)C(=O)N[C@@H](CCC(N)=O)C(=O)N[C@@H](CC(C)C)C(=O)N[C@@H](C)C(=O)N[C@@H](CCC(N)=O)C(=O)N[C@@H](CCC(=O)O)C(=O)N[C@@H](CC(=O)O)C(=O)NCC(=O)N[C@H](C(=O)N[C@H](C(=O)NCC(=O)N[C@H](C(=O)N[C@@H](CCCNC(=N)N)C(=O)NCCOCCOCCOCCOCCOCCOCCOCCOCCOCCOCCOCCOCCC(=O)N[C@@H](CS)C(N)=O)C(C)C)C(C)C)C(C)C)[C@@H](C)O  selectivity ratio (Calu-1 lung mucoepidermoid carcinoma; cell binding, phage binding, item: output/input phage; 10 min, 37 °C; relative to: control phage): 0.53 ± 0.14
CC(C)C12OC1C1OC13C1(C)CCC4=C(COC4=O)C1CC1OC13C2OC(=O)CCC(=O)OC1OC(CO)C(O)C(O)C1O (centres unmarked)  IC50 (primary renal proximal tubule cells; cell viability, XTT; 47 h): 4.83 µM
CCOC(=O)C1(Cc2ccccc2)Oc2cc(F)ccc2N(Cc2ccccc2)C1=O (centres unmarked)  inhibition (HaCaT; cell growth or viability, CCK-8; 1.56 µM, 72 h): 0.21%
CC[C@H](C)[C@H](NC(=O)[C@H](C)NC(=O)CNC(=O)[C@H](Cc1ccccc1)NC(=O)[C@H](CC(N)=O)NC(=O)[C@H](CC(N)=O)NC(=O)[C@H](CO)NC(=O)[C@H](CO)NC(=O)[C@H](Cc1c[nH]cn1)NC(=O)[C@@H](NC(=O)[C@H](CC(C)C)NC(=O)[C@H](Cc1ccccc1)NC(=O)[C@H](CC(N)=O)NC(=O)[C@H](C)NC(=O)[C@H](CC(C)C)NC(=O)[C@H](CCCNC(=N)N)NC(=O)[C@H](CCC(N)=O)NC(=O)[C@@H](NC(=O)[C@H](C)NC(=O)[C@@H]1CSSC[C@H](NC(=O)[C@@H](N)CCCCN)C(=O)N[C@@H](CC(N)=O)C(=O)N[C@@H]([C@@H](C)O)C(=O)N[C@@H](C)C(=O)N[C@@H]([C@@H](C)O)C(=O)N1)[C@@H](C)O)C(C)C)C(=O)N[C@@H](CC(C)C)C(=O)N[C@@H](CO)C(=O)N[C@@H](CO)C(=O)N[C@H](C(=O)N[C@@H](CC(N)=O)C(=O)N[C@H](C(=O)NCC(=O)N[C@@H](CO)C(=O)N[C@@H](CC(N)=O)C(=O)N[C@H](C(=O)N[C@@H](Cc1ccc(O)cc1)C(N)=O)[C@@H](C)O)C(C)C)[C@@H](C)O  EC50 (INS-1 832/13; cell viability, CellTiter-Glo; 24 h): 60000 nM
CC(C)(C)C(=O)OCOP(=O)(OCOC(=O)C(C)(C)C)C1CCCN(O)C1=O (centres unmarked)  log LC50 (RPMI-8226): > -4 log M
CSCC[C@H](NC(=O)[C@@H](NC(=O)[C@H](CCC(N)=O)NC(=O)[C@H](CO)NC(=O)[C@@H](N)C(C)C)[C@@H](C)O)C(=O)N[C@@H](CCCNC(=N)N)C(=O)N[C@@H](CCC(N)=O)C(=O)N[C@H](C(=O)N[C@@H](C)C(=O)N[C@H](C(=O)N1CCC[C@H]1C(=O)N[C@@H](CC(C)C)C(=O)N[C@@H](CC(C)C)C(=O)N[C@@H](Cc1c[nH]c2ccccc12)C(=O)N[C@@H](Cc1ccccc1)C(=O)N[C@@H](Cc1c[nH]c2ccccc12)C(=O)N[C@H](C(=O)NCC(=O)N[C@@H](CO)C(=O)N[C@@H](CC(C)C)C(=O)NCCOCCOCCOCCOCCOCCOCCOCCOCCOCCOCCOCCOCCC(=O)N[C@@H](CS)C(N)=O)[C@@H](C)O)C(C)C)[C@@H](C)O  selectivity ratio (H460 lung large cell carcinoma; cell binding, phage binding, item: output/input phage; 10 min, 37 °C; relative to: control phage): 3.2 ± 0.81
C=CCN1C(=O)C(CC=C)(C(=O)OCC)Oc2cc(F)ccc21 (centres unmarked)  inhibition (HaCaT; cell growth or viability, CCK-8; 50 µM, 72 h): 0.58%
CNC(=S)N/N=C/c1ccc(OCc2ccccc2)cc1  glutathione peroxidase activity (OD450) (IMR-32; item: GPX3; 400 µg/mL, 24 h; higher = more activity): 0.101 a.u.
CC(C)C12OC1C1OC13C1(C)CCC4=C(COC4=O)C1CC1OC13C2OC(=O)CCCOC1OC(CO)C(O)C(O)C1O (centres unmarked)  IC50 (MDA-MB-453; cell growth or viability, XTT; 47 h): 0.53 µM
CC(=O)NCSC[C@H](NC(=O)[C@@H]1CCCN1C(=O)[C@H](C)NC(=O)[C@@H](NC(=O)CNC(=O)[C@@H](NC(=O)[C@H](Cc1c[nH]c2ccccc12)NC(=O)[C@H](C)NC(=O)CNC(=O)[C@H](CO)NC(=O)[C@H](C)NC(=O)[C@@H]1CCCN1C(=O)[C@H](Cc1c[nH]c2ccccc12)NC(=O)[C@H](C)NC(=O)[C@H](C)NC(=O)[C@@H](N)Cc1ccc(O)cc1)[C@@H](C)O)[C@@H](C)O)C(=O)N[C@@H](CO)C(=O)N[C@@H](C)C(=O)NCC(=O)N[C@H](C(=O)NCCOCCOCCOCCOCCOCCOCCOCCOCCOCCOCCOCCOCCC(=O)N[C@@H](CS)C(N)=O)[C@@H](C)O  selectivity ratio (H358 lung adenocarcinoma; cell binding, phage binding, item: output/input phage; 10 min, 37 °C; relative to: control phage): 43 ± 13
CC1CCC2C(C)C(OC(=O)CCC(=O)N3CCC(Nc4ccc(S(=O)(=O)NC(=O)c5ccc(N6CCN(CC7=C(c8ccc(Cl)cc8)CC(C)(C)CC7)CC6)cc5Oc5cnc6[nH]ccc6c5)cc4[N+](=O)[O-])CC3)OC3OC4(C)CCC1C32OO4 (centres unmarked)  viable cells (THP-1; annexin V/PI flow cytometry, item: annexin V-/PI-; 0.2 µM, 24 h): 83.1%
O=C(O)c1ccc(-c2nc(-c3ccccc3Cl)c3sccn23)cc1  CD71 fluorescence intensity (K562; erythroid differentiation, flow cytometry; 0.1 mM, 24 h, unit not given; relative to: untreated): 0.87 and 0.86 and 0.78
CC(C)[C@H](NC(=O)[C@H](CCCNC(=N)N)NC(=O)[C@@H]1CCCN1C(=O)[C@@H](NC(=O)[C@H](C)NC(=O)[C@H](Cc1ccc(O)cc1)NC(=O)[C@H](CCC(N)=O)NC(=O)[C@H](CCCCN)NC(=O)[C@H](CCCNC(=N)N)NC(=O)[C@@H]1CCCN1C(=O)[C@H](CCC(=O)O)NC(=O)[C@@H](NC(=O)[C@H](C)N)[C@@H](C)O)[C@@H](C)O)C(=O)N[C@@H](Cc1ccccc1)C(=O)N[C@@H](Cc1c[nH]c2ccccc12)C(=O)N[C@H](C(=O)N[C@@H](CC(=O)O)C(=O)N[C@@H](C)C(=O)N1CCC[C@H]1C(=O)NCC(=O)NCCOCCOCCOCCOCCOCCOCCOCCOCCOCCOCCOCCOCCC(=O)N[C@@H](CS)C(N)=O)[C@@H](C)O  selectivity ratio (Calu-1 lung mucoepidermoid carcinoma; cell binding, phage binding, item: output/input phage; 10 min, 37 °C; relative to: control phage): 1.4 ± 0.39
CC[C@H](C)[C@H](NC(=O)CNC(=O)[C@H](Cc1ccc(O)cc1)NC(=O)[C@H](CO)NC(=O)[C@H](Cc1ccc(O)cc1)NC(=O)[C@@H](NC(=O)[C@H](CC(=O)O)NC(=O)[C@H](CO)NC(=O)[C@H](CCC(N)=O)NC(=O)[C@H](Cc1ccccc1)NC(=O)[C@H](CO)NC(=O)[C@H](Cc1ccccc1)NC(=O)[C@@H]1CCCN1C(=O)[C@H](CC(N)=O)NC(=O)[C@H](CC(N)=O)NC(=O)[C@H](CC(=O)O)NC(=O)[C@H](CCC(N)=O)NC(=O)[C@@H]1CCCN1C(=O)[C@H](CCCNC(=N)N)NC(=O)[C@H](CCCNC(=N)N)NC(=O)[C@H](CCCNC(=N)N)NC(=O)[C@H](CCC(N)=O)NC(=O)[C@H](CCCNC(=N)N)NC(=O)[C@H](CCCNC(=N)N)NC(=O)[C@H](CCCCN)NC(=O)[C@H](CCCCN)NC(=O)[C@H](CCCNC(=N)N)NC(=O)CN)C(C)C)C(=O)N[C@H](C(=O)N[C@@H](CC(C)C)C(N)=O)C(C)C  phospho-c-Raf level (MCF7; immunoblot densitometry, item: phospho-c-Raf Ser338; 1 µM, 48 h, unit not given; relative to: 0 µM): 0.902 and 0.942
Cc1cc(Oc2nc(N3CC[C@@H](c4ccncc4)C3)ncc2F)[nH]n1  IC50 (SF-295; cell proliferation; brain cancer): 77.6 µM
CC(C)C[C@H](NC(=O)[C@@H]1CCCN1C(=O)[C@H](CCCCN)NC(=O)[C@@H](N)CO)C(=O)N1CCC[C@H]1C(=O)N[C@@H](CCC(=O)O)C(=O)N[C@H](C(=O)N[C@H](C(=O)N[C@@H](CC(=O)O)C(=O)N[C@@H](CCC(=O)O)C(=O)N[C@@H](Cc1ccc(O)cc1)C(=O)NCC(=O)NCCOCCOCCOCCOCCOCCOCCOCCOCCOCCOCCOCCOCCOCCOCCOCCOCCOCCOCCOCCOCCOCCOCCOCCOCCC(=O)N[C@@H](CCCCNC(=O)CC[C@H](C(=O)O)N1CCN(CC(=O)O)CCN(CC(=O)O)CC1)C(=O)N1CCN(CCCN(C)c2ccc3nccc(C(=O)NCC(=O)N4CC(F)(F)C[C@H]4C#N)c3c2)CC1)[C@@H](C)O)C(C)C  EC50 (MRC5; T-cell-mediated lysis; 16 h, effector to target 5:1): 0.0392 nM
C#CCN1C(=O)C(CC#C)(C(=O)OCC)Oc2ccccc21 (centres unmarked)  inhibition (HaCaT; cell growth or viability, CCK-8; 0.78 µM, 72 h): 0.27%
CSc1ccc2c(c1)c(CCN)c(C)n2Cc1ccccc1Cl  IC50 (HMC3; nuclear intensity, high-content imaging; geometric mean): 5.41 µM
O=C(C[Se]C(=O)c1ccccc1)Nc1cccc(C(F)(F)F)c1  TGI (NCI60 NSCLC subpanel mean; cell growth): 4.89 µM
COc1ccccc1-c1ccncc1C(=O)Nc1nnc(OCc2ccc(Cl)cc2)s1  colony survival (RPE-1 TP53-/- BRCA1-/-; 8 µM; relative to: untreated): 23.4% and 29.7%
NC(=O)N/N=C/c1ccc(OCc2cccc(F)c2)cc1  glutathione peroxidase activity (OD450) (IMR-32; item: GPX3; 100 µg/mL, 24 h; higher = more activity): 0.035 a.u.
CC[C@H]1CN([C@@H](CC)c2ccc(C(F)(F)F)cc2)[C@H](CC)CN1c1nc(=O)n(C)c2ccc(C#N)nc12  EC50 (human CD4+ T cells; protein phosphorylation, phosphoproteomics, item: ZFP91 Ser69 phosphorylation; 1 h, stimulation 60 min): 1.05 nM
CC=C1CNC2CC3(C(=O)N(OC)c4cc(OC)ccc43)C3CC1C2CO3 (centres unmarked)  viability (Vero; CCK-8; up to 100 µM, 24 h): no effect

A few entries again:
CC(C)[C@H](NC(=O)[C@H](CCCNC(=N)N)NC(=O)[C@@H]1CCCN1C(=O)[C@@H](NC(=O)[C@H](C)NC(=O)[C@H](Cc1ccc(O)cc1)NC(=O)[C@H](CCC(N)=O)NC(=O)[C@H](CCCCN)NC(=O)[C@H](CCCNC(=N)N)NC(=O)[C@@H]1CCCN1C(=O)[C@H](CCC(=O)O)NC(=O)[C@@H](NC(=O)[C@H](C)N)[C@@H](C)O)[C@@H](C)O)C(=O)N[C@@H](Cc1ccccc1)C(=O)N[C@@H](Cc1c[nH]c2ccccc12)C(=O)N[C@H](C(=O)N[C@@H](CC(=O)O)C(=O)N[C@@H](C)C(=O)N1CCC[C@H]1C(=O)NCC(=O)NCCOCCOCCOCCOCCOCCOCCOCCOCCOCCOCCOCCOCCC(=O)N[C@@H](CS)C(N)=O)[C@@H](C)O  selectivity ratio (Calu-1 lung mucoepidermoid carcinoma; cell binding, phage binding, item: output/input phage; 10 min, 37 °C; relative to: control phage): 1.4 ± 0.39
CC[C@H](C)[C@H](NC(=O)CNC(=O)[C@H](Cc1ccc(O)cc1)NC(=O)[C@H](CO)NC(=O)[C@H](Cc1ccc(O)cc1)NC(=O)[C@@H](NC(=O)[C@H](CC(=O)O)NC(=O)[C@H](CO)NC(=O)[C@H](CCC(N)=O)NC(=O)[C@H](Cc1ccccc1)NC(=O)[C@H](CO)NC(=O)[C@H](Cc1ccccc1)NC(=O)[C@@H]1CCCN1C(=O)[C@H](CC(N)=O)NC(=O)[C@H](CC(N)=O)NC(=O)[C@H](CC(=O)O)NC(=O)[C@H](CCC(N)=O)NC(=O)[C@@H]1CCCN1C(=O)[C@H](CCCNC(=N)N)NC(=O)[C@H](CCCNC(=N)N)NC(=O)[C@H](CCCNC(=N)N)NC(=O)[C@H](CCC(N)=O)NC(=O)[C@H](CCCNC(=N)N)NC(=O)[C@H](CCCNC(=N)N)NC(=O)[C@H](CCCCN)NC(=O)[C@H](CCCCN)NC(=O)[C@H](CCCNC(=N)N)NC(=O)CN)C(C)C)C(=O)N[C@H](C(=O)N[C@@H](CC(C)C)C(N)=O)C(C)C  phospho-c-Raf level (MCF7; immunoblot densitometry, item: phospho-c-Raf Ser338; 1 µM, 48 h, unit not given; relative to: 0 µM): 0.902 and 0.942
